{"data": "Results from different studies", "note": "Numbered parts are unrelated; each lists some results of a single study."}
{"data": "Study 1", "target": "Ras GTPase-activating protein-binding protein 1, RRM domain (G3BP1, Homo sapiens, UniProt Q13283)", "technique": "RNA Bind-n-Seq", "molecule type": "RNA", "medium": "in vitro", "tested at": "1 µM", "notes": "whole 134-nt RNA, ends assumed", "with": "150 mM KCl", "baseline": "input library", "direction": "higher = stronger binding", "shared flanks, not repeated": "GGGAGUUCUACAGUCCGACGAUC … UGGAAUUCUCGGGUGUCAAGG", "sequence of UniProt Q13283 (whole entry, looked up)": "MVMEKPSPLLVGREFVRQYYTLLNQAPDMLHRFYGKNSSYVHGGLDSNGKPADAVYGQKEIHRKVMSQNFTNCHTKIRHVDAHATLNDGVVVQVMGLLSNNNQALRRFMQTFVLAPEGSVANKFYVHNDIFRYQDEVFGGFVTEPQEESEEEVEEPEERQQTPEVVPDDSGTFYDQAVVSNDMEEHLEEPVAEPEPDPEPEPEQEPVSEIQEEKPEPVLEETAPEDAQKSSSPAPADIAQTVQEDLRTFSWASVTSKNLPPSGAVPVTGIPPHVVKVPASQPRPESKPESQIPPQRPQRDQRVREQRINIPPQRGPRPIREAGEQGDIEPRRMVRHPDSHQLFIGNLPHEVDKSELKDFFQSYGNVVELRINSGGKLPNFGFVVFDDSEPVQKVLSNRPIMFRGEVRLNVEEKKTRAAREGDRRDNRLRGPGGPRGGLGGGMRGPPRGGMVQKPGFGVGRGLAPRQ"}
{"Oligonucleotide": "AGUCCUGUGCUACACAUCGUAUGUACCGAAUCGGGGAAAAAGGGGAAAGGGGAGGGGAAAGUAUUAUGUUACGCCGUUCGGAUCUGCACU", "log2 enrichment": 1.03}
{"Oligonucleotide": "CUCAAGUCCUGUGCUACACAUCGUAUGUACCGAAUCGGUUUUUUUGGAGGUGGAAAGUAUUAUGUUACGCCGUUCGGAUCUGCACUUCCA", "log2 enrichment": -0.148}
{"Oligonucleotide": "UCCUGUGCUACACAUCGUAUGUACCGAAUCGGGCCCCCCGGCCCCCCGGGCCCCCCGGGGAAAGUAUUAUGUUACGCCGUUCGGAUCUGC", "log2 enrichment": -0.378}
{"Oligonucleotide": "ACCAUGCAGGUGGGCAUCUUUGGGAAGUGGGGCAAGGGGGGGAUAGGGAGGGGGGUAACACUUUGGGAACAGGUGGUCCCAGGUCGUUCC", "log2 enrichment": 1.12}
{"Oligonucleotide": "AGUCCUGUGCUACACAUCGUAUGUACCGAAUCGGGUUUUGGGGUUUUGGGGUUUUGGAAAGUAUUAUGUUACGCCGUUCGGAUCUGCACU", "log2 enrichment": -0.235}
{"Oligonucleotide": "UCCUGUGCUACACAUCGUAUGUACCGAAUCGGGAAAAAAAGGGAAAAAGGGAAAAAGGGAAAGUAUUAUGUUACGCCGUUCGGAUCUGCA", "log2 enrichment": 0.0804}
{"Oligonucleotide": "CAAGUCCUGUGCUACACAUCGUAUGUACCGAAUCGGUGGUUUUUGGUUUUUUUGGAAAGUAUUAUGUUACGCCGUUCGGAUCUGCACUUC", "log2 enrichment": -0.217}
{"Oligonucleotide": "UCCUCAAGUCCUGUGCUACACAUCGUAUGUACCGAAUCGGUGGGUGGGUGGAAAGUAUUAUGUUACGCCGUUCGGAUCUGCACUUCCAGC", "log2 enrichment": -0.123}
{"Oligonucleotide": "UAACUUUAGAGGAGGAUCUGAUGGAUAUGGCAGUGGACGUGGAUUUGGGGAUGGCUAUAAUGGGAAUGGAGGAGGACCUGGAGGUGGCAA", "log2 enrichment": -0.283}
{"data": "Study 2", "target": "RNA binding protein fox-1 homolog 2, RRM domain, GST-SBP tag (RBFOX2, Homo sapiens, UniProt O43251-10, residues 100-194)", "technique": "RNA Bind-n-Seq", "molecule type": "RNA", "medium": "in vitro", "tested at": "365 nM", "notes": "natural RNA segment, single round, ends assumed", "baseline": "no-protein control", "direction": "higher = stronger binding", "shared flanks, not repeated": "GGGAGUUCUACAGUCCGACGAUC … UGGAAUUCUCGGGUGCCAA", "Construct (chain)": "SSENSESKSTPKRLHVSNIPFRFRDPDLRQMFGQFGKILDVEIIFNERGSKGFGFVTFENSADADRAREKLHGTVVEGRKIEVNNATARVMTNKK"}
{"Oligonucleotide": "GGUGAGAGGGCUGGUAUGUCAUGUUGUUAUGAUACAGUCGAAAUUUGUCAAUGCAGUGUGAAUGUUCUACAUAAAGUGCUUUAACCCUUAACAUUUCCUGGUCAGGAAGG", "RBNS enrichment (R)": 0.567}
{"Oligonucleotide": "GUGUUAAUAAUUGUUCUGAUGAAUCAUACAGUUGAAAUAAAGUGACGUAACAUCUUGUAUACUGUGAGUUGGCUGUAGCUAGUCCUGCUUGAUUACCUACCUCAUUUACA", "RBNS enrichment (R)": 0.54}
{"Oligonucleotide": "ACUGGCUAGGCUGCUUCAGUUUACAACAGGCUCUUCUCAGCUCCCACCUGGAGGAUUUGCUGCCCUCUGUCCCUCAUUUCAGAUUAUUGCUGCUCCAACCCAUAGCACGC", "RBNS enrichment (R)": 1.67}
{"Oligonucleotide": "UCUCAGCUUUGAGACCUGGGCUCUUUGGAGCACAGAGAACUUUGAUUUUUAAGCUUCUACAGAUAUGGUCCUAGAGACUGGGGUCCUCAGACACUCCCGCUGUAUGUGGU", "RBNS enrichment (R)": 0.851}
{"Oligonucleotide": "AAACCUGUGGGUGGGGUUGGGGUGGAGAAGUAGAGAGAGGGCAACAGCUUCCACAACUGCUUCAUCUCUGCCAACACUAAUUUUUCCCACACUGUCUUUGUACAUUUCAG", "RBNS enrichment (R)": 0.229}
{"Oligonucleotide": "AUUGUGGGAUGUUUAAAAAUGGUUUGUUGUUGUUGUUUUGGUUUCUGAAGACAGUAUUGCUAUAUAUCCCAGUCUGACCUUACUGUGUGUUUGAGGCUAACCUAGAAAUU", "RBNS enrichment (R)": 1.9}
{"Oligonucleotide": "GCCUCACUUUUAAUGAACAAAUGGCCUUUAUUAAAAACUGAGUGACUCUAUAUAGCUGAUCAGUUUUUUCACCUGGAAGCAUUUGUUUCUACUUUGAUAUGACUGUUUUU", "RBNS enrichment (R)": 0.408}
{"Oligonucleotide": "CCUGAGUGGAACAUCUGGCCAUGCAUGGUUGUGAUGGGCCAUUGCUUUCGCUGCUUUAGAGCACCACAGACCUGACUGCUGCCGAGUCGGUCCCUGCAGCUAAUGCUCGA", "RBNS enrichment (R)": 0.682}
{"data": "Study 3", "target": "Interferon regulatory factor 5, full length, phosphomimetic (IRF5, Homo sapiens, UniProt Q13568-2, residues 1-514, K96S/S451D/S453D/S456D/S462D)", "technique": "protein-binding microarray", "molecule type": "double-stranded DNA, one strand shown", "medium": "in vitro", "tested at": "250 nM", "notes": "60-bp whole probe", "with": "salmon DNA 0.4 mg/ml", "baseline": "random background probes", "direction": "higher = stronger binding", "shared flanks, not repeated": "GCCTAGCAC … GTCTTGATTCGCTTGACGCTGCTG"}
{"Oligonucleotide": "GACGGTTTCGTTCTCCTGACGTGCTAG", "log fluorescence": "6.22 z-score"}
{"Oligonucleotide": "TCACGTATATTCCCTAGAACTGTGCTA", "log fluorescence": "0.486 z-score"}
{"Oligonucleotide": "GTAGATATCAGTATCGATTAGTGCTAG", "log fluorescence": "7.89 z-score"}
{"Oligonucleotide": "TTAGGTCTCGGTTTAGGTTAGTGCTAG", "log fluorescence": "1.23 z-score"}
{"Oligonucleotide": "GACGAACTGGCGTATCGAGACGTGCTA", "log fluorescence": "0.279 z-score"}
{"Oligonucleotide": "TCACCCTTGCTTTCCAAACTGTGCTAG", "log fluorescence": "0.327 z-score"}
{"Oligonucleotide": "GACGATTCCAGTTTCGATACGTGCTAG", "log fluorescence": "9.28 z-score"}
{"Oligonucleotide": "TCAAATTTGCTTTAGTCACTGTGCTAG", "log fluorescence": "0.404 z-score"}
{"Oligonucleotide": "TTACATATCGGGACTGGATTAGTGCTA", "log fluorescence": "1.47 z-score"}
{"Oligonucleotide": "GACGGTTCCCTTTTCATGACGTGCTAG", "log fluorescence": "0.326 z-score"}
{"Oligonucleotide": "TTAGATTTCGGGAATCGATTAGTGCTA", "log fluorescence": "3.55 z-score"}
{"Oligonucleotide": "TTAGGTATCGACAATGGGTTAGTGCTA", "log fluorescence": "2.56 z-score"}
{"Oligonucleotide": "TCATTTTGCCCTATTTAACTGTGCTAG", "log fluorescence": "0.798 z-score"}
{"Oligonucleotide": "GACGGCCTCGGTATCGGGACGTGCTAG", "log fluorescence": "0.551 z-score"}
{"Oligonucleotide": "TTAGGTCTCCTCCTCCTTTAGTGCTAG", "log fluorescence": "-0.165 z-score"}
{"Oligonucleotide": "TTAGATTTCCGTTCCGATTAGTGCTAG", "log fluorescence": "1.85 z-score"}
{"Oligonucleotide": "TATGGTATGCTCATGACAAAGTGCTAG", "log fluorescence": "-0.165 z-score"}
{"Oligonucleotide": "GACGAAATGGGGTTTCGAGACGTGCTA", "log fluorescence": "2.2 z-score"}
{"Oligonucleotide": "TTAGGTATCCTACTGCTTTGGTGCTAG", "log fluorescence": "-0.0876 z-score"}
{"data": "Study 4", "target": "Hepatocyte nuclear factor 3-alpha (Foxa1, Mus musculus, UniProt P35582, residues 1-468, full length assumed)", "technique": "EMSA with sequencing", "molecule type": "double-stranded DNA, one strand shown", "medium": "in vitro", "tested at": "10 and 20 nM", "notes": "whole designed probe, mean of two concentrations, ends assumed", "baseline": "negative control set to 0", "direction": "higher = stronger binding", "shared flanks, not repeated": "GTGAGCGGTGCCCATTGATGGGGAAC … TTTCACTGGGATCGTGGGGAC", "sequence of UniProt P35582 (whole entry, looked up)": "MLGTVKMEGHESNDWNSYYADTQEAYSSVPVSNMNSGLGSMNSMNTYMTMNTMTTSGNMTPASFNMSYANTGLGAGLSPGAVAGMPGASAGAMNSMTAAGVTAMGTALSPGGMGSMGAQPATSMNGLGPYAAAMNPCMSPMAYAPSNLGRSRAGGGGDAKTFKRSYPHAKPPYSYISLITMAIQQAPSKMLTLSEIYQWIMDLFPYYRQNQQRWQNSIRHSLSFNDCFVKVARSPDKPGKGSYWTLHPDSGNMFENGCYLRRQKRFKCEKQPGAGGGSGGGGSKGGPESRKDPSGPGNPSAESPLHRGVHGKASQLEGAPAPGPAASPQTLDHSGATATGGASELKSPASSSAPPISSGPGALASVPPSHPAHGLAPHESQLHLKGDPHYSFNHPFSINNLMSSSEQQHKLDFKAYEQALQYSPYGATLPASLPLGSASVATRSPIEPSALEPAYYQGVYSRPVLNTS"}
{"Oligonucleotide": "TCATTAATTAAACTGACATTTAAATTTAATTTGGAAGTAATGCAATTGATGGTAGATTACTTTAAATTGAGTACAGTATTCATAGGTATATTCTTGTTTACTTAAAATATAAAACATAGTAATATACAGGAGAGAAAAAAGAAATTTTTTTTAAGCTTATAAAAGGATTTATGGGCTGGGCGCAGTGGCTCAC", "normalised bound fraction": "0.39 ratio"}
{"Oligonucleotide": "TCCTGCTTCTGTTGGCTGTTTCTTCTCTTTGGAGGGGGTCCCATTTCCCCACCTCTTTGCATACGCTGTAATGTTTTGTTGGATACTGCATGTTGTTTATTTAGAGCAGCAGTTCAGACTGAAGTAGGAGCTGTCATCCTGGAGGGGCTCCCTGCCTGTGTTGGGCATGTGGGGGGCTGCTCAGCCAGATCCA", "normalised bound fraction": "0.418 ratio"}
{"Oligonucleotide": "ATCTTCCCCCTCTTCCTTGCCCCACCAGCTCACCTTCCCGGGTTATTTGCAGATAGGAAAATAAATAAAGCCGGCATTCGTTAACGCAGTTCTGGCGCAAACTGCTGTTTGCTCTGCATCTAACATGGTCCTTACGCGACGCCAGGCTCCGGGAGAGCAAAGCACCGTGTCAGGCGCATGATCCGGGCTCGCC", "normalised bound fraction": "0.358 ratio"}
{"Oligonucleotide": "AGACTGGGAATCTGAGCAATGCTCATGGCAATAAGCCAGGACCAGGCCCTAAACATCTGGCTGCTCCACTGTATGGATCTTTGGCATGTTAAATGTCAACAGACCTTGTGGATATAAAGTTGACTCAGTCAGAAAACATCTACGGTCTACATGGAAAAGAAAGTCTTTTGGAAAGAAAAGAAGGCAGGGTGTC", "normalised bound fraction": "0.173 ratio"}
{"Oligonucleotide": "CTAAGAGTTGGCAGATCATGCAACAGCCCGGGTCCCTGAATGGCCATGTAGAACATGATCTCTACCCTGACCTATTTTAGACAGTACAATTAAATAATCTAGCAGACTTTTGTAGTAGAAAATCCCTGGAATTTGGGGTTTATTTATTACTAAAGAATAGCTTTGCATCTGGCCCTTGTTTATCTGTCATTTA", "normalised bound fraction": "0.0533 ratio"}
{"note": "A few entries again (study 3):"}
{"Oligonucleotide": "TTACATATCGGGACTGGATTAGTGCTA", "log fluorescence": "1.47 z-score"}
{"Oligonucleotide": "GACGGTTCCCTTTTCATGACGTGCTAG", "log fluorescence": "0.326 z-score"}
{"Oligonucleotide": "TTAGATTTCGGGAATCGATTAGTGCTA", "log fluorescence": "3.55 z-score"}
{"Oligonucleotide": "TTAGGTATCGACAATGGGTTAGTGCTA", "log fluorescence": "2.56 z-score"}
{"Oligonucleotide": "TCATTTTGCCCTATTTAACTGTGCTAG", "log fluorescence": "0.798 z-score"}
{"Oligonucleotide": "GACGGCCTCGGTATCGGGACGTGCTAG", "log fluorescence": "0.551 z-score"}
